Results pooled from the literature.
Every numbered part comes from another study and shows a few of its results, in no order. Several values in a cell are separate wells, animals, samples, runs or records.
Chain of UniProt P37173 (whole entry, looked up): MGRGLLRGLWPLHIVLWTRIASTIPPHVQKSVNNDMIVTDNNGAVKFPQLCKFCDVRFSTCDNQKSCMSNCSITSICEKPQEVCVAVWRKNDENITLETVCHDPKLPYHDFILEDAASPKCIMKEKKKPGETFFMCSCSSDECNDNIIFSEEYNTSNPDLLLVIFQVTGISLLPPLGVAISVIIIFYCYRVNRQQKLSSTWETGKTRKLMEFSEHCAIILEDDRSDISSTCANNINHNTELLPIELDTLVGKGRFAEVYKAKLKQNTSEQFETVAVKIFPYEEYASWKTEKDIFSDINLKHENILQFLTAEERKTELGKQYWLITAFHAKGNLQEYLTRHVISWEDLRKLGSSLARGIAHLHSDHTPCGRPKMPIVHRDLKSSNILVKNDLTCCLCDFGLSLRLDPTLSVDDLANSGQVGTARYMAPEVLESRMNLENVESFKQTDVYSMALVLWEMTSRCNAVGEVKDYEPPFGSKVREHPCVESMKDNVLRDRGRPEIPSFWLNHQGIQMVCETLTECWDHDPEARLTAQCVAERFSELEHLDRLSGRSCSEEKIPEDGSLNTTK
Chain of UniProt P51812 (whole entry, looked up): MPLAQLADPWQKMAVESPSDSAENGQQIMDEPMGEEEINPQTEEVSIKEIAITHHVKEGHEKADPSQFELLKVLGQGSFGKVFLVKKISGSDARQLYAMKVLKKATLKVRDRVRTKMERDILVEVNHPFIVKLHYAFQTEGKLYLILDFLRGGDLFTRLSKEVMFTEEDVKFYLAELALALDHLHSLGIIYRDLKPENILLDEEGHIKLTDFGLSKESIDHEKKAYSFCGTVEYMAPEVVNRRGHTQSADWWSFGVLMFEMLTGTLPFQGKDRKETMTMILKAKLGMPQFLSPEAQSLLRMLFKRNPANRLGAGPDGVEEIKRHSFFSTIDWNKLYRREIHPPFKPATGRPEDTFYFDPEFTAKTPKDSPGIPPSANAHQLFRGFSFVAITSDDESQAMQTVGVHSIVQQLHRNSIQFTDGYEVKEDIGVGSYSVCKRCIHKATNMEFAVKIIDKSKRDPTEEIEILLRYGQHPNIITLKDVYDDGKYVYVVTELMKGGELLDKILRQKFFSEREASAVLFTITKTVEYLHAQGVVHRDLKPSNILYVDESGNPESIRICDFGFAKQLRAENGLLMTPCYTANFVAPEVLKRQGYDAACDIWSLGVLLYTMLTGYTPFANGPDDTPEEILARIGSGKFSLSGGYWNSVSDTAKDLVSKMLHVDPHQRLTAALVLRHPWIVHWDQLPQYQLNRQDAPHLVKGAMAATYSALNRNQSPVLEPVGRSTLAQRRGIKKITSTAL
Chain of UniProt Q13177 (whole entry, looked up): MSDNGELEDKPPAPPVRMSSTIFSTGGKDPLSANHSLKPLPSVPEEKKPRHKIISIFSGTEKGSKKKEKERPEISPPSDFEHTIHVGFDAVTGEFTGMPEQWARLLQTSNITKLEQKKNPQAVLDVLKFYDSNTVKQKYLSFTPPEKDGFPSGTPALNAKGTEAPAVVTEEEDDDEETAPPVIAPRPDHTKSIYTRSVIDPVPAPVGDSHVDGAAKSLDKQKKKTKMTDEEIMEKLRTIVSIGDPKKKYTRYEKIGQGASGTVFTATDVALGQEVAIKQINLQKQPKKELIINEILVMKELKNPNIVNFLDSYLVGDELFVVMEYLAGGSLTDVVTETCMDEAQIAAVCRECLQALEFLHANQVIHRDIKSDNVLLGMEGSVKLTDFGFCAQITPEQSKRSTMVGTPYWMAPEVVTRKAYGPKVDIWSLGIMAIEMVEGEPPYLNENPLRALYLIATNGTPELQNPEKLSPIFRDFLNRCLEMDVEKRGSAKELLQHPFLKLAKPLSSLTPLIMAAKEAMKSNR
Chain of UniProt P53779 (whole entry, looked up): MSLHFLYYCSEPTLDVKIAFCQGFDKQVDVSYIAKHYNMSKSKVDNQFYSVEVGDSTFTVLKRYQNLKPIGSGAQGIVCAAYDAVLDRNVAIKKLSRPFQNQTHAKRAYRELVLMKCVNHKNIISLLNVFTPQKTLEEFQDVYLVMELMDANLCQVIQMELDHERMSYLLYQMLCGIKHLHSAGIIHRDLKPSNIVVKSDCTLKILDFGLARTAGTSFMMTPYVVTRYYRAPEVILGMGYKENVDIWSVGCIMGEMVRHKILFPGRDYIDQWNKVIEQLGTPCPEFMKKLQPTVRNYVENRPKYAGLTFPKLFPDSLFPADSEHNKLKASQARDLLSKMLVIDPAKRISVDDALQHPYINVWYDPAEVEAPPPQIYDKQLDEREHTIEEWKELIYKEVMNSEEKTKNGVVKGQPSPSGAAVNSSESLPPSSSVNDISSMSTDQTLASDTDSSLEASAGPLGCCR
Chain of UniProt P31749 (whole entry, looked up): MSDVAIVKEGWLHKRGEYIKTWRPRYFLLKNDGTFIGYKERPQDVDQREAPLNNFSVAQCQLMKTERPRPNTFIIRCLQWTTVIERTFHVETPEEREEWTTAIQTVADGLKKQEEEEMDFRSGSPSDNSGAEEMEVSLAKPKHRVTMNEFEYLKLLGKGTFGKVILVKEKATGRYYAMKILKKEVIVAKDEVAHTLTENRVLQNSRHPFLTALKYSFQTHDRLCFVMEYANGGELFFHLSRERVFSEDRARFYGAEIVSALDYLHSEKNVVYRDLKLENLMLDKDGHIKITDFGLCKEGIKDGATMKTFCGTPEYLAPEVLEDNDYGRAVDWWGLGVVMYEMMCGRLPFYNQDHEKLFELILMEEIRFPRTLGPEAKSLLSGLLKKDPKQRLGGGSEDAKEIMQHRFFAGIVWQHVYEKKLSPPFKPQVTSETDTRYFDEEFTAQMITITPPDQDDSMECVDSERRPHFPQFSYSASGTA
Chain of UniProt P09769 (whole entry, looked up): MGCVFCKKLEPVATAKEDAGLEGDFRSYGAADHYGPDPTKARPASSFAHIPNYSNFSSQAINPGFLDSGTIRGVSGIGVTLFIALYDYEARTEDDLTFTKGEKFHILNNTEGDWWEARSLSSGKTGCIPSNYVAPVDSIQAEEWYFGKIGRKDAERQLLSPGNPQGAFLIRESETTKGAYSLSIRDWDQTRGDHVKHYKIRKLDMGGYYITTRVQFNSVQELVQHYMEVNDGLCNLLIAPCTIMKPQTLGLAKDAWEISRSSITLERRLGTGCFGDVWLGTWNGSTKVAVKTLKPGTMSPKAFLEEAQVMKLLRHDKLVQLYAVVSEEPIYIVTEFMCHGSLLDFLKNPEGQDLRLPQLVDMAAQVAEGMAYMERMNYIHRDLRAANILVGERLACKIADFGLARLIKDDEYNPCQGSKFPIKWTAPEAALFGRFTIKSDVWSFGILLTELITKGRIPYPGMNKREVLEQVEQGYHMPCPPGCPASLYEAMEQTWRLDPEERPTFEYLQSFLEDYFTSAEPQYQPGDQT
Chain of UniProt Q9BWU1 (whole entry, looked up): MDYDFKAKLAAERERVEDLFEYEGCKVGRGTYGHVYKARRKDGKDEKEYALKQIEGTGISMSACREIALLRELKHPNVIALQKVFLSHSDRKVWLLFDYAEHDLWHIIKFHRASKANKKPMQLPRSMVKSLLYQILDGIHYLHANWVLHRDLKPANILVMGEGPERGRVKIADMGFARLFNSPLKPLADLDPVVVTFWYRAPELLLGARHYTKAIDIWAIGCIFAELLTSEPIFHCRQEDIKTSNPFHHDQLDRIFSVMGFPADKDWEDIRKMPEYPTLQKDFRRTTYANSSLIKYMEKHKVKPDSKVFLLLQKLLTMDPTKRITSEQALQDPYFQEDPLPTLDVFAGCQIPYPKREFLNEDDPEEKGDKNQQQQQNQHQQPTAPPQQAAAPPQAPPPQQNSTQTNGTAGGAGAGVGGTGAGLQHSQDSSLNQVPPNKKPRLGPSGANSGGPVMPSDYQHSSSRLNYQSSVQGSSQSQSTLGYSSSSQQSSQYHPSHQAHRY
Chain of UniProt Q9UIK4 (whole entry, looked up): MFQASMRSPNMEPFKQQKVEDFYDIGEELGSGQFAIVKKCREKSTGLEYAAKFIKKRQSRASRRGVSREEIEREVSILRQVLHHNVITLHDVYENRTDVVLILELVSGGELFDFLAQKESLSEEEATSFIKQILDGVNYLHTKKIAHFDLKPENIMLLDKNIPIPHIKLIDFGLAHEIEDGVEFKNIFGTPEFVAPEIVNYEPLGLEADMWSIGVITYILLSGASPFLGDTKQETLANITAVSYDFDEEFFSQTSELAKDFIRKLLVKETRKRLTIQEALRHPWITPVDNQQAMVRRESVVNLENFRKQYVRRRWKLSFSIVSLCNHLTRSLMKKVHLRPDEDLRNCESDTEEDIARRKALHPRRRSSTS

Sample 1 — concentration: 1 µM; endpoint: remaining binding
SMILES: CC[C@@]1(c2cccc(-c3c(F)cncc3OC)c2)C2=C(Nc3n[nH]cc31)[C@H](F)C(C)(C)CC2=O (single isomer, unassigned)
PAK2 (Homo sapiens, UniProt Q13177); kinase binding, KINOMEscan; reference: DMSO control: 79%
PIK3C3 (Homo sapiens, UniProt Q8NEB9); kinase binding, KINOMEscan; reference: DMSO control: 56%
MAPK10 (Homo sapiens, UniProt P53779); kinase binding, KINOMEscan; reference: DMSO control: 63%
Ribosomal protein S6 kinase alpha-3, N-terminal kinase domain (RPS6KA3, Homo sapiens, UniProt P51812); binding, competition with immobilised ligand: 82%
TGFBR2 (Homo sapiens, UniProt P37173); binding, competition with immobilised ligand: 100%
RIOK3 (Homo sapiens, UniProt O14730); binding, competition with immobilised ligand: 70%
AKT1 (Homo sapiens, UniProt P31749); kinase binding, KINOMEscan; reference: DMSO control: 90%
PIM3 (Homo sapiens, UniProt Q86V86); binding, competition with immobilised ligand: 100%
FGR (Homo sapiens, UniProt P09769); kinase binding, KINOMEscan; reference: DMSO control: 100%
MYLK2 (Homo sapiens, UniProt Q9H1R3); binding, competition with immobilised ligand: 84%
CDK19 (Homo sapiens, UniProt Q9BWU1); KINOMEscan: 71%
DAPK2 (Homo sapiens, UniProt Q9UIK4); binding, competition with immobilised ligand: 80%

Sample 2 — cell line: HCC1569; technique: in-cell western; refers to: CDK1 phospho-Thr14; endpoint: pCDK1 (Thr14) level
Structure (SMILES): Cc1ccc(O)c(C)c1-c1cnc2[nH]c(-c3cnc(N4CCC5(CC4)CC(N4CCN(c6ccc7c(c6)C(=O)N(C6CCC(=O)NC6=O)C7=O)CC4)CO5)nc3)cc2c1C#N (mixture of isomers)
125 nM: 60.9 RLU and 64.2 RLU
500 nM: 86.3 RLU and 92.3 RLU
7.81 nM: 27.5 RLU and 22.8 RLU
3.906 nM: 16.3 RLU and 17.8 RLU
62.50 nM: 54.7 RLU and 46.4 RLU
15.63 nM: 39.9 RLU and 40.9 RLU
250 nM: 75.8 RLU and 69.2 RLU
31.25 nM: 40.6 RLU and 45.8 RLU

Sample 3 — cell line: U-87 MG; concentration: concentration not given; reference: DMSO; endpoint: log2 fold change
SMILES: CCN1/C(=C/C=C2\CCCC(/C=C/C3=[N+](CC)c4ccccc4C3(C)C)=C2NCCCCCCCCN2CCC(Nc3nc4ccccc4n3Cc3ccc(F)cc3)CC2)C(C)(C)c2ccccc21
refers to: TERF2IP mRNA: 0.913
refers to: RAB38 mRNA: 2.57
refers to: SCN1B mRNA: -1.88
refers to: LOXL4 mRNA: -3.12
refers to: DNHD1 mRNA: 1.62
refers to: YWHAH mRNA: -1.03
refers to: SMCR8 mRNA: 0.886
refers to: NOD1 mRNA: -1.1
refers to: FHOD1 mRNA: -2.47
refers to: CENPB mRNA: -0.871
refers to: PPP4R4 mRNA: 1.25

Sample 4 — organism: Arabidopsis thaliana; strain: Col-0; endpoint: hypocotyl length
SMILES: COc1ccc2c(c1)OC(O)(C(=O)O)C(=O)N2Cc1ccccc1 (stereo not drawn)
25 µg/mL, seed germination, repetition mean: 1.62 cm
6.25 µg/mL, seed germination, single repetition: 1.91 cm and 1.93 cm and 1.92 cm
3.125 µg/mL, seed germination, single repetition: 1.95 cm and 2 cm and 2.02 cm
100 µg/mL, seed germination, repetition mean: 1.03 cm
12.5 µg/mL, seed germination, single repetition: 1.82 cm and 1.83 cm and 1.87 cm and 1.85 cm

A few entries again (sample 4):
25 µg/mL, seed germination, repetition mean: 1.62 cm
6.25 µg/mL, seed germination, single repetition: 1.91 cm and 1.93 cm and 1.92 cm
